Assay results gathered from unrelated publications.
± marks the error that the study gave.
BPTF bromodomain: Nucleosome-remodeling factor subunit BPTF, bromodomain (BPTF, Homo sapiens, UniProt Q12830)
LGALS9 N-terminal CRD: Galectin-9, N-terminal CRD (LGALS9, Homo sapiens, UniProt O00182)

Compound | target | test | test system | setting | Kd
CC[C@H](C)[C@H](NC(=O)[C@H](CCCCN)NC(=O)[C@H](CCCCN)NC(=O)[C@@H](NC(=O)[C@H](CCC(=O)O)NC(=O)[C@H](CCC(=O)O)NC(=O)[C@H](CCC(=O)O)NC(=O)[C@H](CO)NC(=O)[C@H](CC(C)C)NC(=O)[C@H](CC(=O)O)NC(=O)[C@H](CC(C)C)NC(=O)CNC(=O)[C@H](CCCNC(=N)N)NC(=O)[C@H](CC(C)C)NC(=O)[C@H](CO)NC(=O)CNC(=O)CNC(=O)CNC(=O)CCCC[C@@H]1SC[C@@H]2NC(=O)N[C@@H]21)C(C)C)C(=O)N[C@@H](CC(C)C)C(=O)N[C@@H](CC(=O)O)C(=O)N[C@@H](CCC(=O)O)C(=O)N[C@H](C(=O)N[C@H](C(=O)N[C@@H](CCCCN)C(=O)N[C@@H](C)C(=O)O)C(C)C)[C@@H](C)CC | Fab B11 antibody (human) | binding, biolayer interferometry | – | together with: biotinylated peptide on tips | 0.106 ± 0.004 µM
CC(=O)NCCCC[C@H](NC(=O)CNC(=O)CNC(=O)[C@H](C)NC(=O)[C@@H](N)Cc1ccc(O)cc1)C(=O)N[C@@H](C)C(=O)NCC(=O)N[C@@H](CCCCN)C(=O)N[C@@H](CC(=O)O)C(=O)N[C@@H](CO)C(=O)NCC(=O)N[C@@H](CCCCN)C(=O)N[C@@H](C)C(=O)N[C@@H](CCCCNC(C)=O)C(=O)N[C@@H](C)C(=O)N[C@@H](CCCCN)C(=O)N[C@@H](C)C(=O)N[C@H](C(=O)N[C@@H](CO)C(=O)N[C@@H](CCCNC(=N)N)C(N)=O)C(C)C | BPTF bromodomain | bromodomain binding, PrOF NMR titration | – | pH 7.4, 5-fluorotryptophan-labelled bromodomain, 40-50 µM | 790 µM
CC[C@H](C)[C@H](NC(=O)[C@H](CCC(=O)O)NC(=O)[C@@H](NC(=O)[C@H](CCC(N)=O)NC(=O)[C@@H](N)CCCCN)[C@@H](C)CC)C(=O)N[C@@H](CCCCN)C(=O)N[C@@H](CCCCN)C(=O)N[C@@H](Cc1ccccc1)C(=O)N[C@@H](CCCCN)C(=O)O | Gap junction alpha-1 protein, C-terminal tail 255-382 (GJA1, Homo sapiens, UniProt P17302) | binding, SPR | – | Cx43 C-terminal tail | ~2.5 µM
CC(=O)NCCCC[C@H](NC(=O)CNC(=O)CNC(=O)[C@H](C)NC(=O)[C@@H](N)Cc1ccc(O)cc1)C(=O)N[C@@H](C)C(=O)NCC(=O)N[C@@H](CCCCN)C(=O)N[C@@H](CC(=O)O)C(=O)N[C@@H](CO)C(=O)NCC(=O)N[C@@H](CCCCN)C(=O)N[C@@H](C)C(=O)N[C@@H](CCCCN)C(=O)N[C@H](C(=O)N[C@@H](CCCCNC(C)=O)C(=O)N[C@@H](C)C(=O)N[C@H](C(=O)N[C@@H](CO)C(=O)N[C@@H](CCCNC(=N)N)C(N)=O)C(C)C)[C@@H](C)O | BPTF bromodomain | bromodomain binding, PrOF NMR titration | – | pH 7.4, 5-fluorotryptophan-labelled bromodomain, 40-50 µM | 630 µM
CN(C)CCNC(=O)c1cccc2c(NCCCCc3c(N)nc(N)nc3N)c3ccccc3nc12 | (CCUG)6 RNA | binding, ITC | – | 25 °C, binding site 1 | 5.2 ± 0.6 µM
Cc1cc(N2CC[C@@](C#N)(C3(C)CC3)C2=O)cc(C(=O)NCc2cc(F)cc(-c3cnn(C)c3)c2)n1 | Proline--tRNA ligase (Plasmodium falciparum, UniProt Q8I5R7) | binding, MST | – | – | 0.288 µM
[N-]=[N+]=NCCOC1OC(CO)C(OC2OC(COC3(C(=O)O)CC(O)C(NC(=O)OCc4cn(C(c5ccccc5)c5ccccc5)nn4)C(C(O)C(O)CO)O3)C(O)C(O)C2O)C(O)C1O (stereo not drawn) | Sialic acid-binding Ig-like lectin 9, V-set domain (SIGLEC9, Homo sapiens, UniProt Q9Y336, C36S) | binding, isothermal titration calorimetry | – | pH 7.4, domain 1 | 19.5 ± 1.3 µM
CC#Cc1cc2c3c(c1C#CC)O[C@H](CO)[C@H](O)[C@@H]3OC2 | LGALS9 N-terminal CRD | binding, competitive fluorescence polarization | – | 20 °C, galectin-9 N-terminal domain 1.0 µM | > 2000 µM
O=[N+]([O-])c1cc(Br)cc([N+](=O)[O-])c1NS(=O)(=O)c1ccc(Br)cc1 | PYL1 (Arabidopsis thaliana, UniProt Q8VZS8) | binding, ITC | – | pH 7.5 | 35.1 µM
Oc1c(I)cc(I)cc1CN1CCC(N2CCC(O)CC2)CC1 | Cellular tumor antigen p53 (TP53, Homo sapiens, UniProt P04637, M133L/N239Y/N268D/V203A/Y220C) | – | – | 20 °C, protein 75 µM | 87 ± 17 µM
CCc1nc(-c2cccc(NC(=O)c3cccc(OC)c3)c2)no1 | Cystathionine gamma-synthase 1, chloroplastic (CGS1, Arabidopsis thaliana, UniProt P55217) | binding, microscale thermophoresis | – | – | 17.8 µM
CC(=O)NCCCC[C@H](NC(=O)[C@H](CCCCN)NC(=O)[C@H](Cc1c[nH]cn1)NC(=O)[C@H](CCCNC(=N)N)NC(C)=O)C(=O)Nc1ccc2c(C)cc(=O)oc2c1 | NAD-dependent protein deacetylase sirtuin-1 (SIRT1, Homo sapiens, UniProt Q96EB6, C253S/C268S/C501S/C502S/D292A/D298A/del513-640) | peptide binding, isothermal titration calorimetry | 10% glycerol | pH 7.5, 25 °C, D292A/D298A mutant, together with: resveratrol 0.5 mM | 6.5 µM
CC[C@H](C)[C@H](NC(=O)[C@H](CC(=O)O)NC(=O)[C@H](CC(=O)O)NC(=O)[C@@H]1CCCN1C(=O)[C@H](CC(=O)O)NC(=O)[C@H](CC(C)C)NC(=O)[C@H](CCSC)NC(=O)[C@H](CC(C)C)NC(=O)[C@H](CC(=O)O)NC(=O)[C@H](CC(=O)O)NC(=O)[C@H](CCSC)NC(=O)[C@H](C)NC(=O)[C@H](CCC(N)=O)NC(=O)[C@H](CC(=O)O)NC(=O)[C@@H]1CCCN1C(=O)[C@H](CC(C)C)NC(=O)[C@@H]1CCCN1C(=O)[C@H](CC(=O)O)NC(=O)[C@H](CC(C)C)NC(=O)[C@@H](NC(=O)[C@H](CC(N)=O)NC(=O)[C@H](CC(N)=O)NC(=O)[C@H](CCC(=O)O)NC(=O)[C@@H]1CCCN1C(=O)[C@H](CC(C)C)NC(=O)[C@H](CC(C)C)NC(=O)[C@H](CCCCN)NC(=O)[C@H](Cc1c[nH]c2ccccc12)NC(=O)[C@H](CC(C)C)NC(=O)[C@H](CC(=O)O)NC(=O)[C@H](CC(=O)O)NC(=O)[C@H](Cc1ccccc1)NC(=O)[C@H](CC(=O)O)NC(=O)[C@H](CCC(=O)O)NC(=O)[C@H](CCC(N)=O)NC(=O)[C@H](CC(=O)O)NC(=O)[C@H](CC(C)C)NC(=O)[C@@H]1CCCN1C(=O)[C@@H]1CCCN1C(=O)[C@H](CCC(=O)O)NC(=O)[C@@H](N)C(C)C)C(C)C)C(=O)N[C@@H](CCC(=O)O)C(=O)N[C@@H](CCC(N)=O)C(=O)N[C@@H](Cc1c[nH]c2ccccc12)C(=O)N[C@@H](Cc1ccccc1)C(=O)N[C@@H](CC(=O)O)C(=O)N[C@@H](CCC(=O)O)C(=O)N[C@@H](CC(=O)O)C(=O)O | Histone acetyltransferase p300, IBiD domain (EP300, Homo sapiens, UniProt Q09472) | fluorescence anisotropy | – | IBiD domain, together with: labelled p53 TAD peptide | 3.2 ± 0.11 µM
COc1cc(C2CC(=O)Nc3nc(N)[nH]c(=O)c32)ccc1O (stereo not drawn) | uncharacterized protein (Leishmania donovani, UniProt A0A3Q8IA09) | fluorometric titration | – | pH 8.0, 298 K | 2.1 ± 0.3 µM
C[C@H](NC(=O)[C@H](C)NC(=O)[C@H](Cc1ccc(O)cc1)NS(=O)(=O)c1cccc2c(N(C)C)cccc12)C(=O)N[C@@H](CCC(N)=O)C(=O)N[C@@H](CCCCN)C(=O)N[C@@H](Cc1c[nH]cn1)C(=O)N[C@@H](Cc1ccccc1)C(=O)N[C@@H](Cc1c[nH]cn1)C(=O)O | Rho guanine nucleotide exchange factor TIAM1, PDZ domain (TIAM1, Homo sapiens, UniProt Q13009) | fluorescence anisotropy | – | 25 °C, together with: dansylated peptide 1 µM | > 250 µM
C[C@@H](O)[C@@H]1NC(=O)[C@H](CCCCN)NC(=O)[C@@H](Cc2c[nH]c3ccccc23)NC(=O)[C@H](Cc2ccc(O)cc2)NC(=O)[C@H](NC(=O)[C@H](Cc2ccc([N+](=O)[O-])cc2)NC(=O)CN2CCCN3CCN(CCCN(CC(=O)O)CC3)CC2)CSSC[C@@H](C(=O)N[C@H](Cc2ccc(O)cc2)C(N)=O)NC1=O [copper-64 labelled] | Somatostatin receptor type 2 (Rattus norvegicus, UniProt P30680) | saturation binding | AR-42J cell membranes | – | 0.026 ± 0.0024 µM
CC(=O)NCCCC[C@H](NC(=O)CNC(=O)CNC(=O)[C@H](C)NC(=O)[C@@H](N)Cc1ccc(O)cc1)C(=O)N[C@@H](C)C(=O)NCC(=O)N[C@@H](CCCCN)C(=O)N[C@@H](CC(=O)O)C(=O)N[C@@H](CO)C(=O)NCC(=O)N[C@@H](CCCCN)C(=O)N[C@@H](C)C(=O)N[C@@H](CCCCN)C(=O)N[C@@H](C)C(=O)N[C@@H](CCCCN)C(=O)N[C@@H](C)C(=O)N[C@H](C(=O)N[C@@H](CO)C(=O)N[C@@H](CCCNC(=N)N)C(N)=O)C(C)C | BPTF bromodomain | bromodomain binding, PrOF NMR titration | – | pH 7.4, 5-fluorotryptophan-labelled bromodomain, 40-50 µM | 1290 µM
COc1ccc(Cc2cc3c4c(c2)O[C@H](CO)[C@H](O)[C@@H]4OC3)cc1 | LGALS9 N-terminal CRD | binding, competitive fluorescence polarization | – | 20 °C, galectin-9 N-terminal domain 1.0 µM | > 1000 µM
C[n+]1ccc(/C=N/NC(=O)c2cccc(C(=O)N/N=C/c3cc[n+](C)c4ccccc34)n2)c2ccccc21 | G-quadruplex DNA myc22 | fluorimetric titration | – | pH 7.2, 100 mM KCl, together with: Cy5-labelled DNA 2 nM | 0.0112 ± 0.0022 µM
O=C(O)Cc1ccc(O)cc1 | p-hydroxyphenylacetate 3-hydroxylase, reductase component (C1-hpah, Acinetobacter baumannii, UniProt Q6Q271) | ITC | – | pH 7, together with: 1 mM FMN | 10.2 µM
OC[C@H]1Oc2c(I)c(I)cc3c2[C@@H](OC3)[C@H]1O | LGALS9 N-terminal CRD | binding, competitive fluorescence polarization | – | 20 °C, galectin-9 N-terminal domain 1.0 µM | > 1000 µM
CCCN(CC(=O)N(CCC)CC(=O)N(CCC)CC(=O)N(CCC)CC(=O)N(CC(N)=O)Cc1cn(CCCNC(=O)CCCOc2cccc(-c3nc4ccc(-c5nc6ccc(N7CCN(C)CC7)cc6[nH]5)cc4[nH]3)c2)nn1)C(=O)CNCc1cn(CCCNC(=O)CCCOc2cccc(-c3nc4ccc(-c5nc6ccc(N7CCN(C)CC7)cc6[nH]5)cc4[nH]3)c2)nn1 | r(CUG)109 RNA hairpin | binding, fluorescence | – | – | 0.1 ± 0.013 µM
CC[C@H](C)[C@H](NC(=O)[C@H](CCCCN)NC(=O)[C@H](CCCCN)NC(=O)[C@@H](NC(=O)[C@H](CCC(=O)O)NC(=O)[C@H](C)NC(=O)[C@H](CCC(=O)O)NC(=O)[C@H](CO)NC(=O)[C@H](CC(C)C)NC(=O)[C@H](CC(=O)O)NC(=O)[C@H](CC(C)C)NC(=O)CNC(=O)[C@H](CCCNC(=N)N)NC(=O)[C@H](CC(C)C)NC(=O)[C@H](CO)NC(=O)CNC(=O)CNC(=O)CNC(=O)CCCC[C@@H]1SC[C@@H]2NC(=O)N[C@@H]21)C(C)C)C(=O)N[C@@H](CC(C)C)C(=O)N[C@@H](CC(=O)O)C(=O)N[C@@H](CCC(=O)O)C(=O)N[C@H](C(=O)N[C@H](C(=O)N[C@@H](CCCCN)C(=O)N[C@@H](CC(=O)O)C(=O)O)C(C)C)[C@@H](C)CC | Fab B11 antibody (human) | binding, biolayer interferometry | – | together with: biotinylated peptide on tips | 0.043 ± 0.001 µM
O=C(Cc1cccc(C(F)(F)F)c1)Nc1cc(Oc2cc3sc(NC(=O)C4CC4)nc3cc2Br)ccc1F | Receptor-interacting serine/threonine-protein kinase 3 (RIPK3, Homo sapiens, UniProt Q9Y572) | binding, competition with immobilised ligand | – | – | > 5 µM

For quick reference, copied from above:
Compound | target | test | test system | setting | Kd
OC[C@H]1Oc2c(I)c(I)cc3c2[C@@H](OC3)[C@H]1O | LGALS9 N-terminal CRD | binding, competitive fluorescence polarization | – | 20 °C, galectin-9 N-terminal domain 1.0 µM | > 1000 µM
CC(=O)NCCCC[C@H](NC(=O)CNC(=O)CNC(=O)[C@H](C)NC(=O)[C@@H](N)Cc1ccc(O)cc1)C(=O)N[C@@H](C)C(=O)NCC(=O)N[C@@H](CCCCN)C(=O)N[C@@H](CC(=O)O)C(=O)N[C@@H](CO)C(=O)NCC(=O)N[C@@H](CCCCN)C(=O)N[C@@H](C)C(=O)N[C@@H](CCCCN)C(=O)N[C@H](C(=O)N[C@@H](CCCCNC(C)=O)C(=O)N[C@@H](C)C(=O)N[C@H](C(=O)N[C@@H](CO)C(=O)N[C@@H](CCCNC(=N)N)C(N)=O)C(C)C)[C@@H](C)O | BPTF bromodomain | bromodomain binding, PrOF NMR titration | – | pH 7.4, 5-fluorotryptophan-labelled bromodomain, 40-50 µM | 630 µM
CC(=O)NCCCC[C@H](NC(=O)[C@H](CCCCN)NC(=O)[C@H](Cc1c[nH]cn1)NC(=O)[C@H](CCCNC(=N)N)NC(C)=O)C(=O)Nc1ccc2c(C)cc(=O)oc2c1 | NAD-dependent protein deacetylase sirtuin-1 (SIRT1, Homo sapiens, UniProt Q96EB6, C253S/C268S/C501S/C502S/D292A/D298A/del513-640) | peptide binding, isothermal titration calorimetry | 10% glycerol | pH 7.5, 25 °C, D292A/D298A mutant, together with: resveratrol 0.5 mM | 6.5 µM
O=C(O)Cc1ccc(O)cc1 | p-hydroxyphenylacetate 3-hydroxylase, reductase component (C1-hpah, Acinetobacter baumannii, UniProt Q6Q271) | ITC | – | pH 7, together with: 1 mM FMN | 10.2 µM
